Measurements from different studies.
Each numbered part is a random draw from the data of one study; scales do not carry over between parts. Substitutions count along the parent as printed.

Series 1 — target: CCNB1, cyclin fold, Cln2 fusion (human); technique: yeast growth competition, sequencing; matrix: yeast; setting: strong parent motif; reference: not given; reading: higher = stronger binding
Parent: PKN2 docking peptide (human); VSAVQKLDFSDTM; partner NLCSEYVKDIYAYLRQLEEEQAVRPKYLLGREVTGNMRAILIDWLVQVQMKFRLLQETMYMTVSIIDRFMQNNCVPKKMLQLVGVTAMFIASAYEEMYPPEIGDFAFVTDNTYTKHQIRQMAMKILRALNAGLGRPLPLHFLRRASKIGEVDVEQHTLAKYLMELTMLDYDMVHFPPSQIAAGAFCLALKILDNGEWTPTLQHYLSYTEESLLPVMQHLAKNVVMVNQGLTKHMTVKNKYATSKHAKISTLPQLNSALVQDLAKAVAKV
| Substitution | normalised enrichment score |
| --- | --- |
| S2N | 1.75 |
| V4R | 0.95 |
| S10C | 1.71 |
| T12S | 2.49 |
| V1E | 1.8 |
| D11Y | 0.676 |
| M13H | 2.13 |
| S2D | 1.55 |
| D8G | 0.758 |
| F9M | -0.0753 |
| K6G | 0.821 |
| D11S | 1.08 |
| Q5A L7A | 0.149 |
| K6W | 0.757 |
| V1I | 1.93 |
| D11T | 1.49 |
| M13S | 2.31 |

Series 2 — technique: protein-binding microarray; molecule type: double-stranded DNA, one strand shown; matrix: in vitro; tested at: 250 nM; setting: 60-bp whole probe; together with: salmon DNA 0.4 mg/ml; reference: random background probes; reading: higher = stronger binding; constant ends, left off below: GCCTAGCAC … GTCTTGATTCGCTTGACGCTGCTG
Target: Interferon regulatory factor 5, full length, phosphomimetic (IRF5, Homo sapiens, UniProt Q13568-2, residues 1-514, K96S/S451D/S453D/S456D/S462D)
| Sequence | log fluorescence [z-score] |
| --- | --- |
| CTAGGTTTCGGTATCGGTTAGTGCTAG | 10.6 |
| GACGGCTTCGGGACTGGGGACGTGCTA | -0.285 |
| TCAGTCTTCAGGTTCTCACTGTGCTAG | 0.0351 |
| TTTGGCTTTCCTTTATGTCCGTGCTAG | 0.815 |
| TTAGATCTCAGTCACGATTAGTGCTAG | -0.0109 |
| GACGGGCTGGGTCTCGGGACGTGCTAG | -0.741 |
| TTAGTTTTCGGTTTCGGTTAGTGCTAG | 11.8 |
| TTAGGACTCGGGTATCGGTTAGTGCTA | 3.27 |
| GAGGAACTGAGACTGGAGACGTGCTAG | -0.406 |
| TTAGGCCTCGGTCTCGGTTAGTGCTAG | 0.0967 |
| TTAGGTTTCCACACTGGGTTAGTGCTA | 0.389 |
| GACGATTTCGCGTTTCGAGACGTGCTA | 2.09 |
| TCAGCTGTTTTTCTCACCACGTGCTAG | 0.534 |
| TCATGTATGGATGTGTTACTGTGCTAG | 0.14 |
| AGGATCCTGGGAGGGAGAGCGTGCTAG | -0.67 |
| GACGGTATCGGGTTTCGCGACGTGCTA | 2.87 |
| TTAGATTTCGGGTCTGGATTAGTGCTA | 4.15 |
| TTGGAACTGAGTATCGATTAGTGCTAG | 6.27 |
| TTAGGTCTCGTTCTCGGTTAGTGCTAG | 0.762 |
| CTGTTTTTCTCACCACATTTTGTGCTA | 1.5 |
| AATTTGAGAACGGAAACCAAGTGCTAG | 0.5 |
| GACGATCTCAGACTGGGGACGTGCTAG | -0.149 |
| GATTGGCTGACTTTGGAGATGTGCTAG | -0.279 |
| TCACATTTGGAAAATGAAACTGTGCTA | 1.11 |
| TTAGGTTCCGATTTCGGTTAGTGCTAG | 5.94 |

Series 3 — technique: DHFR PCA, deep sequencing; matrix: yeast; together with: (+)-ABA 0.11 µM; reference: wild-type fitted maximum; reading: higher = stronger binding
Target: ABI1, truncated, D143A, DHFR fusion (Arabidopsis thaliana)
Setting: methotrexate growth selection, single substitutions
Parent: PYL1, truncated, DHFR fusion (Arabidopsis thaliana); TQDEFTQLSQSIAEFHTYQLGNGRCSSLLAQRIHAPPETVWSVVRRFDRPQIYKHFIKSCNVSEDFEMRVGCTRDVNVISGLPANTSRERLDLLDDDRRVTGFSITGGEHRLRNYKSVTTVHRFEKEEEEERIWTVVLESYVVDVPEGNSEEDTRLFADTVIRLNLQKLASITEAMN
| Substitution | relative binding score |
| --- | --- |
| T119D | 0.00185% |
| Q167C | 11.8% |
| K54C | -4.83% |
| T86M | 23.9% |
| T160I | -3.63% |
| E127R | 39.4% |
| A13C | 8.26% |
| E67H | 19.3% |

Series 4 — technique: protein binding microarray; molecule type: double-stranded DNA, one strand shown; matrix: in vitro; tested at: not given; reference: not given; reading: higher = stronger binding
Target: Histone acetyltransferase KAT6A, winged helix 2, GST fusion (KAT6A, Homo sapiens, UniProt Q92794, residues 85-181)
Setting: 8-mer, flanks averaged, mean of 2 arrays, mostly near background
Target sequence (chain): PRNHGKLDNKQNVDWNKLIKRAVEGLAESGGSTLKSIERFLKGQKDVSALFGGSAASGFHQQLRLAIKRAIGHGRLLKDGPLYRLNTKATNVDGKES
| Sequence | E-score |
| --- | --- |
| CGGCTAGC | 0.0991 |
| ACATGCGC | -0.104 |
| AATGTATC | 0.00805 |
| CGGCGCGA | 0.344 |
| GAGATGAC | -0.206 |
| GGCGCTAA | -0.00909 |
| ACACATGT | -0.203 |
| ATCGCGCC | 0.27 |
| CGTGGGGC | 0.171 |
| GTTTAACA | -0.0357 |
| ACAGTCAT | -0.24 |
| GTAATACA | 0.0183 |
| ATTCAAAT | 0.0261 |
| CAGTGCCG | 0.144 |
| ACATGGAG | -0.121 |
| CGCCTGTC | 0.055 |
| GACGCCCC | -0.103 |
| AAATCGCT | -0.0703 |
| ACATAGCA | -0.0322 |
| TGTGCGAA | 0.0658 |
| TATAGGGA | -0.0861 |

Series 5 — technique: RNA Bind-n-Seq; molecule type: RNA; matrix: in vitro; tested at: 365 nM; reference: no-protein control; reading: higher = stronger binding
Target: RNA binding protein fox-1 homolog 2, RRM domain, GST-SBP tag (RBFOX2, Homo sapiens, UniProt O43251-10, residues 100-194)
Setting: natural RNA segment, single round, ends assumed
Target sequence (chain): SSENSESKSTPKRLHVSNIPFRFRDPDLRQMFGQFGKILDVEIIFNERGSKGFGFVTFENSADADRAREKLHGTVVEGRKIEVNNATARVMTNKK
| Sequence | RBNS enrichment (R) |
| --- | --- |
| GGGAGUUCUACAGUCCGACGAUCCCUUGAAUAGCUCUGCUUGGACAAUGGGGUUGGGGAAUAGGGUUGUCUUUCCUAUGAAAAUGCCAUCUGUAGACCUUGUGAGUCAGCCGUCCAGAUGUUUGCAGGUGAAUUGGAAUUCUCGGGUGCCAA | 0.441 |
| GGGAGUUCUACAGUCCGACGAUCCAAAGGGAAUGCUUCCAGUUUUUGCCCAUUCAGUAUGAUAUUGGCUGUGGGUUUGUCAUAGAUAGCUCUUAUUAUUUUGAAAUACACCCCAUCAAUCCCUAAUUUAUUGAUGGAAUUCUCGGGUGCCAA | 1.22 |
| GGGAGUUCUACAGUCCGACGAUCUGUAUAGUGGCUAACUUAAGGGGAGUGGGUGACCCUGACACUUCCAGGCACUGUGCCCAGGGUUUGGGUUUUAAAUUAUUGACUUUGUACAGUCUGCUUGUGGGCUCUGAUGGAAUUCUCGGGUGCCAA | 1.16 |
| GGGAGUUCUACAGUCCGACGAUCUCUUUAAGACAGUGCUAGAGUAGAACACGGGGCCUGUGCAUAACAAACGCCCUACUUCUAAGCUCGUCCUUAGUAGCCCAGGCUGGUCUAGAACCUCUGGUCUUCCUUUCUGGAAUUCUCGGGUGCCAA | 0.272 |
| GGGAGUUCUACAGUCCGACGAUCAAGUGCAUUUUUCUAGGUAGACUCCUGCCCUCCUUGCUACCAGACCUGCAGCCACCUUGGUUUUGCCUUGGAGAACAUUUGGGGAGCAUUUCCUGAACCCAUGUCUUUUGUGGAAUUCUCGGGUGCCAA | 1.65 |
| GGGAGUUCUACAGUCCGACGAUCUCUUGUCCCUGGUUUCCUUAUGUGUUGAAUGUGGUUGAGUUUGUCCAUUGCUAGGGAGAGACUUCCAGUAAUAAAAUUUACUAUUCUAGAUGCUUCUACUGUUAUGUUUUUGGAAUUCUCGGGUGCCAA | 6 |
| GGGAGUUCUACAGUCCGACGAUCCUUGUAUCGAUCCUGCGAAUCAGUGAUUAUCUUUGUUGGAAAACCUUAUCAAAUGUGUCUGCAAAUCAAGAUGGUCUAAAGUGCAAGCCAGUUUUUUGUUUGCUUGUUUUUGGAAUUCUCGGGUGCCAA | 0.491 |
| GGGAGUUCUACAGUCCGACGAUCUUGUUGCUUUACCCAAGACAAAUGUAAUUUUAUCAUUGCUUAUGUAGUAUUUUUCUUUUGGAAAUGUGCCUUAUGUUAAACACUAUGUACUUUUACUUUUUGCAUUGUCCUGGAAUUCUCGGGUGCCAA | 0.401 |
| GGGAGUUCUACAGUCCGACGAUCAAUCUGCAGACCCUCCAGCAGUUGGCUGUUGAGUCCCUGCUGUGGAAGUUCUCUUGACUAUCACCUGCUUCCAGCUACCAGGCAAGAAAGAGGGCCUCUGUUCUCAACCAUGGAAUUCUCGGGUGCCAA | 0.309 |
| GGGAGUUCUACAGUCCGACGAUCAGCAUUCAUUUUGAGAAAAGCAACUUUAGUUUCAAGGAUAAUUUUAAGCUUCAAAAUUAAUCAUUUAAAGUGUUUCUUUAAGAGAGCCAUGUUAGAGGCUCACACUUUAGUGGAAUUCUCGGGUGCCAA | 0.878 |
| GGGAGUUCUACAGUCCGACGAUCUGAUUUGAAUUAAUACACACAAUAUCUGAGACACUUACACUUUUCAAAAGAUUUGUGUAUGCAUUGCCUAAUUAGAGUAGGGGGAGAAGGGCAACUAUUAUUAUCCCUAUUGGAAUUCUCGGGUGCCAA | 0.381 |
| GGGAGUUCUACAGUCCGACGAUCUGCCCUUGCUCUGUUUCUGCUCCUCACCGGCUGUCAUUACAUGCUACACUGAGGCUUUAAAAACACAAGGUCCCCCAAGGCUUCCUAGAAAUUGAAAUCUUUGCCUAGGCUGGAAUUCUCGGGUGCCAA | 0.245 |

Other studies, line by line
| Substance | target | assay | system | setting | scale | endpoint | result |
| --- | --- | --- | --- | --- | --- | --- | --- |
| PhoQ, residues 284 288 289 292 302 303 DDMDFR | PhoP, residues 12 14 15 18 19 NYFTV (Escherichia coli, UniProt P23836) | Sort-seq, refers to: YFP reporter | E. coli | PhoQ-PhoP variant library, together with: 10 µM Mg2+ | reference: high Mg2+ state, higher = stronger signaling | fold induction | 0.573 |
